Results of several laboratories.
Compare with care: the assays were run in different laboratories.
Organism: Staphylococcus aureus

CN[C@@H]1[C@H](O)[C@H](NC)[C@H]2O[C@]3(O)[C@H](O[C@@H]2[C@H]1O)O[C@H](C)C[C@H]3NC(=O)Cc1cc(Cl)ccn1
MIC (microbial growth, broth dilution; 8325): 12.5 µg/mL

CCn1c(-c2ccc(OC)cc2)c(-c2ccc(OC)cc2)n(CC)c1=[Se]
MIC (microbial growth, broth dilution; ATCC700699 VISA; 24 h, drug-resistant strain): > 40 µM

CC[C@H](C)[C@H](NC(=O)[C@@H](CCCNC(=N)N)NC(=O)[C@H](CCCNC(=N)N)NC(=O)[C@@H]1CCCN1C(=O)[C@@H]1CCCN1C(=O)[C@H](Cc1c[nH]c2ccccc12)NC(=O)[C@@H]1CCCN1C(=O)[C@H](CCCNC(=N)N)NC(=O)[C@@H]1CCCN1C(=O)[C@H](CC(C)C)NC(=O)[C@H](Cc1ccc(O)cc1)NC(=O)[C@@H]1CCCN1C(=O)[C@@H]1CCCN1C(=O)[C@H](CCCCN)NC(=O)[C@H](CC(=O)O)NC(=O)[C@@H](N)C(C)C)C(=O)N[C@@H](Cc1ccc(O)cc1)C(=O)N[C@@H](CC(N)=O)C(=O)N[C@H](CCCNC(=N)N)C(N)=O
MIC (broth microdilution; DSM 6247; 18 h, 37 °C, 25% MHB2): > 128 µg/mL

CC(C)C[C@@H](NC(=O)[C@@H](CCCNC(=N)N)NC(=O)[C@H](N)CCCNC(=N)N)C(=O)N[C@H](CC(C)C)C(=O)N[C@H](CCCNC(=N)N)C(=O)N[C@H](CCCCN)C(=O)N[C@H](CC(C)C)C(=O)N[C@H](CCCCN)C(=O)NCC(=O)N[C@H](CCCCN)C(=O)N[C@H](CCCCN)C(=O)N[C@H](CC(C)C)C(=O)N[C@H](Cc1ccc(O)cc1)C(=O)N[C@H](CC(C)C)C(=O)N[C@H](Cc1ccc(O)cc1)C(=O)N[C@H](Cc1ccccc1)C(=O)N[C@H](CCCCN)C(=O)N[C@H](CC(C)C)C(=O)N[C@H](CCC(N)=O)C(=O)N[C@H](CC(C)C)C(=O)N[C@H](CC(C)C)C(=O)N[C@H](CCCCN)C(=O)N[C@H](CCCCN)C(N)=O
MIC (broth microdilution; KCTC 1621, Mueller-Hinton broth; with: NH4Cl 6 µM): 16 µM

COc1ccc(NC(=O)Nc2cccc(C(=O)N3CCC(C)CC3)c2)cc1
MIC (checkerboard, refers to: ceftobiprole; CRB, PBP4 overexpressor; 25 µM): > 64 µg/mL

CC[C@H](C)[C@H](NC(=O)[C@H](C)NC(=O)CNC(=O)[C@@H](NC(=O)[C@@H](N)Cc1ccccc1)[C@@H](C)CC)C(=O)N[C@@H](C)C(=O)N[C@@H](CCCNC(=N)N)C(=O)N[C@@H](CC(C)C)C(=O)N[C@@H](CC(C)C)C(=O)N[C@@H](CO)C(=O)N[C@@H](CCCCN)C(=O)N[C@H](C(=O)N[C@@H](Cc1ccccc1)C(N)=O)[C@@H](C)CC
MIC (broth dilution; ATCC 25923; 24 h, 37 °C): 6.25 µg/mL

CC(C)C[C@@H]1NC(=O)[C@@H](CC(C)C)NC(=O)[C@H](CCN)NC(=O)[C@@H](NC(=O)[C@H](CCN)NC(=O)[C@@H](NC(=O)CCCCN=[N+]=[N-])[C@@H](C)O)CCNC(=O)[C@H]([C@@H](C)O)NC(=O)[C@H](CCN)NC(=O)[C@H](CCN)NC1=O
MIC (broth microdilution; MSSA ATCC 29213, cation-adjusted Mueller-Hinton broth; 20 to 24 h, 37 °C, 0.002% polysorbate 80): > 16 µg/mL

Cc1ccc2nc(C)c(C(=O)NCc3ccccc3)n2c1
MIC (microbial growth, broth dilution): > 128 µM

COc1ccc2ccc(O)c(/C=N/[C@H]3CCCC[C@H]3/N=C/c3c(C)cccc3O)c2c1
MIC (bacterial growth, broth microdilution; vancomycin-intermediate): > 40 µM

CC[C@H]1OC(=O)[C@H](C)[C@@H](OC(=O)Cc2ccc3c(c2)OCO3)[C@H](C)[C@@H](O[C@@H]2O[C@H](C)C[C@H](N(C)C)[C@H]2O)[C@](C)(OC)C[C@@H](C)C(=O)[C@H](C)[C@@H](O)[C@]1(C)O
MIC (BAA-976 msr(A)): < 1 µg/mL

CC(C)[C@H](NC(=O)[C@H](Cc1ccc(O)cc1)NC(=O)[C@H](CS)NC(=O)[C@@H](NC(=O)[C@H](CCCNC(=N)N)NC(=O)[C@H](Cc1ccccc1)NC(=O)[C@H](CS)NC(=O)[C@H](Cc1c[nH]c2ccccc12)NC(=O)[C@@H](N)CCCNC(=N)N)C(C)C)C(=O)NCC(=O)N[C@@H](Cc1ccccc1)C(=O)N[C@@H](CS)C(=O)N[C@@H](Cc1ccc(O)cc1)C(=O)N[C@@H](Cc1c[nH]c2ccccc12)C(=O)N[C@@H](CCCCN)C(=O)N[C@@H](CS)C(=O)N[C@@H](CCCNC(=N)N)C(=O)O
MIC (broth microdilution; ATCC 29213, Mueller-Hinton broth; 16 to 20 h, 37 °C): 8.79 µg/mL

CSCC[C@H](NC=O)C(=O)N[C@@H](CCCNC(=N)N)C(=O)N[C@H](C(=O)NCC(=O)N[C@@H](CC(N)=O)C(=O)N[C@@H](C)C(=O)N[C@@H](CC(N)=O)C(=O)O)[C@@H](C)O
MIC (broth dilution; Newman): > 200 µM

CC(C)CCCCCCCCC/C=C/C(=O)N[C@@H](CC(N)=O)C(=O)N[C@H]1CNC(=O)[C@@H]2CCCN2C(=O)[C@H](C(C)C)NC(=O)[C@@H](CN)NC(=O)CNC(=O)[C@H](CC(=O)O)NC(=O)CNC(=O)[C@H](CC(=O)O)NC(=O)[C@H](CC(=O)O)NC(=O)[C@H]2CCCCN2C1=O
MIC (broth microdilution; MRSA USA300, Mueller-Hinton broth, Mg2+ 10 mg/L; 16 h, 37 °C, with: Ca2+ 2.5 mM): 8 µg/mL

CC[C@H](C)[C@H](N)C(=O)N[C@H](C)C(=O)N[C@@H](CC(C)C)C(=O)N[C@H](CCC(=O)O)C(=O)N[C@H](C(=O)N[C@H]1CCCCNC(=O)[C@H](CC(N)=O)NC(=O)[C@@H](CC(=O)O)NC(=O)[C@H](Cc2c[nH]cn2)NC(=O)[C@@H](Cc2ccccc2)NC(=O)[C@H]([C@@H](C)CC)NC(=O)[C@@H](CCCN)NC1=O)[C@@H](C)CC
MIC (USA300 methicillin-resistant; 18 h, 37 °C, 0.3 mM ZnSO4 LB): > 64 µg/mL

C#CCOc1ccc(CN[C@@]2(C)C[C@H](O[C@H]3[C@H](Oc4c5cc6cc4Oc4ccc(cc4Cl)[C@@H](O)[C@@H](NC(=O)[C@@H](CC(C)C)NC)C(=O)N[C@@H](CC(N)=O)C(=O)N[C@H]6C(=O)N[C@H]4C(=O)N[C@H](C(=O)N[C@H](C(=O)O)c6cc(O)cc(O)c6-c6cc4ccc6O)[C@H](O)c4ccc(c(Cl)c4)O5)O[C@H](CO)[C@@H](O)[C@@H]3O)O[C@@H](C)[C@H]2O)cc1OC
MIC (broth microdilution; VISA NRS402, tryptic soy broth; 20 to 24 h, 37 °C, 0.002% polysorbate 80): 16 µg/mL

Cc1ccc2[nH]c3c(c2c1)CCCC3NCCc1ccc(O)cc1 (stereo not shown)
MIC (broth microdilution; Mu50 VISA): 16 µg/mL

C#CCNC(=O)[C@H]1NC(=O)[C@H]2NC(=O)[C@H](NC(=O)[C@@H]3NC(=O)[C@H](CC(N)=O)NC(=O)[C@H](NC(=O)[C@@H](CC(C)C)NC)[C@H](O)c4ccc(c(Cl)c4)Oc4cc3cc(c4O[C@@H]3O[C@H](CO)[C@@H](O)[C@H](O)[C@H]3O[C@H]3C[C@](C)(N)[C@H](O)[C@H](C)O3)Oc3ccc(cc3Cl)[C@H]2O)c2ccc(O)c(c2)-c2c(O)cc(O)cc21
MIC (broth microdilution; VISA LIM-2, tryptic soy broth; 20 to 24 h, 37 °C, 0.002% polysorbate 80): 2 µg/mL

CC[C@H](C)[C@H](NC(=O)[C@@H](CCCNC(=N)N)NC(=O)[C@H](CCCNC(=N)N)NC(=O)[C@@H]1CCCN1C(=O)[C@@H]1CCCN1C(=O)[C@H](CCCNC(=N)N)NC(=O)[C@@H]1CCCN1C(=O)[C@H](CCCNC(=N)N)NC(=O)[C@@H]1CCCN1C(=O)[C@H](CC(C)C)NC(=O)[C@H](Cc1c[nH]cn1)NC(=O)[C@@H]1CCCN1C(=O)[C@@H]1CCCN1C(=O)[C@H](CCCCN)NC(=O)[C@H](CC(=O)O)NC(=O)[C@@H](N)C(C)C)C(=O)N[C@@H](Cc1ccc(O)cc1)C(=O)N[C@@H](CC(N)=O)C(=O)N[C@H](CCCNC(=N)N)C(N)=O
MIC (broth microdilution; DSM 6247; 18 h, 37 °C, 25% MHB2): 128 µg/mL

CC[C@H](C)[C@@H]1NC(=O)[C@H](CO)NC(=O)C(C)(CCCCN)NC(=O)[C@@H]2CSSC[C@@H](C(=O)N[C@@H](Cc3ccc(O)cc3)C(N)=O)NC(=O)[C@H](CCCCN)NC(=O)[C@@H]3CSSC[C@H](NC(=O)[C@H](CCCNC(=N)N)NC(=O)C(C)(CC(C)C)NC(=O)[C@H](CC(=O)O)NC(=O)[C@H](CC(=O)O)NC(=O)[C@H](CCC(=O)O)NC(=O)[C@H](CC(N)=O)NC(=O)[C@H](Cc4c[nH]c5ccccc45)NC(=O)C(C)(CC)NC(=O)CNC(=O)[C@H](CC(N)=O)NC(=O)[C@@H](NC(=O)CNC(=O)[C@H](Cc4ccccc4)NC(=O)CN)CSSC[C@H](NC(=O)[C@H](Cc4ccc(O)cc4)NC(=O)CNC(=O)CNC(=O)[C@H](CCCCN)NC(=O)[C@H](Cc4ccc(O)cc4)NC(=O)[C@H]4CCCN4C(=O)[C@@H]4CCCN4C1=O)C(=O)N[C@@H](C)C(=O)N[C@@H](CCCCN)C(=O)N1CCC[C@@H]1C(=O)NCC(=O)N[C@@H](Cc1ccccc1)C(=O)N[C@@H](C(C)C)C(=O)N3)C(=O)N[C@@H](Cc1c[nH]cn1)C(=O)NC(C)(C)C(=O)N[C@@H](Cc1c[nH]cn1)C(=O)N2 (stereo partly shown)
MIC (broth microdilution; ATCC 49775; 18 h): 2 µM
